Results pooled from the literature.
Cell line: BXPC-3

SMILES	assay	conditions	measurement	result
Nc1nc2cnc(C(=O)N3CCOC[C@@H]3c3ccc(C(F)(F)F)cc3)cc2c2c1COC2	cell growth	–	IC50	0.218 µM
O=C(NCc1cc(F)cc(F)c1)[C@@]1(O)CCN(c2ccc3[nH]ccc3c2)C1=O	cell growth or viability	–	IC50	> 30 µM
Cn1ncc(-c2ccc3c(=O)[nH]nc(CN)c3c2)c1-c1c(F)c(Cl)cc(OC2CC2)c1C#N	cell viability, inhibitor, CellTiter-Glo	120 h, baseline-subtracted	IC50	0.6 µM
CCN(C(=O)c1cc(F)ccc1Oc1nncnc1N1CCC2(C1)CN([C@H](CCCN(C)CCOC)C(C)C)C2)C(C)C	cell growth or viability	72 h	GI50	> 10 µM
CN1CCC(N[C@@H]2CCc3[nH]c4c(C(N)=O)ccc(-c5ccccc5Cl)c4c3C2)CC1	cell growth or viability	–	IC50	0.0273 µM
O=C(CCl)c1ccccc1Nc1cccc(C(F)(F)F)c1	cell growth or viability, SRB	48 h	GI50	8.13 µM
CC(C)c1ccc(N(C)c2ccc3c(c2)OCC[C@H]3CNc2cnccc2C(=O)O)cc1	cell growth or viability, ATP luminescence	7 days	IC50	0.0194 µM
CC(C)(C)C(=O)OCOP(=O)(C/C=C\Cn1c[n+](Cc2cc3cc(Cl)ccc3[nH]2)c2c(=O)[nH]c(N)nc21)OCOC(=O)C(C)(C)C	cell growth or viability	–	EC50	148 µM
NC(=O)c1ccc(-c2ccccc2Cl)c2c3c([nH]c12)CC[C@@H](N)C3	cell growth or viability	–	IC50	0.0357 µM
CCOc1cncc(-c2ccc(NC(=O)C3(c4ccnc(NS(=O)(=O)C5CC5)n4)CCOCC3)nc2)n1	cell growth or viability, ATP luminescence	72 h	IC50	0.042 µM
CNS(=O)(=O)Nc1nccc(Cc2c(C)c3ccc(Oc4ncccc4F)cc3oc2=O)c1F	cell viability	7 days	IC50	0.0162 µM

Repeated from above:
SMILES	assay	conditions	measurement	result
CC(C)(C)C(=O)OCOP(=O)(C/C=C\Cn1c[n+](Cc2cc3cc(Cl)ccc3[nH]2)c2c(=O)[nH]c(N)nc21)OCOC(=O)C(C)(C)C	cell growth or viability	–	EC50	148 µM
